# Assay results from different studies.
# Protocols differ between the studies behind these lines. “And” joins repeats or separate records; there may be more than shown. ± gives the spread as reported.
# ampC: Beta-lactamase (ampC, Escherichia coli K-12, UniProt P00811)
# Chain of UniProt P00811 (whole entry, looked up): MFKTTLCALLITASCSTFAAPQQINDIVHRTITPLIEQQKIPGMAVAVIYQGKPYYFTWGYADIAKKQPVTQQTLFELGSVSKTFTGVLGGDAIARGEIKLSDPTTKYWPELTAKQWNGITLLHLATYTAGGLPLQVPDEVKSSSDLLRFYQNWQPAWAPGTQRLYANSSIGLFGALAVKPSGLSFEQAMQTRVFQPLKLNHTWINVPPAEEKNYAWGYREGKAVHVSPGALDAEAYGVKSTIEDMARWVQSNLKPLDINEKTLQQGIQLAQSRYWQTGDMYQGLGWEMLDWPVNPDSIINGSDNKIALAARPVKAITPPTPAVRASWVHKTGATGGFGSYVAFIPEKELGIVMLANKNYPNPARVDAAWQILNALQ
# HLA class I histocompatibility antigen, A alpha chain allele A*02:01: HLA class I histocompatibility antigen, A alpha chain, allele A*02:01 (Homo sapiens, UniProt P04439)
# Chain of UniProt P35372 (whole entry, looked up): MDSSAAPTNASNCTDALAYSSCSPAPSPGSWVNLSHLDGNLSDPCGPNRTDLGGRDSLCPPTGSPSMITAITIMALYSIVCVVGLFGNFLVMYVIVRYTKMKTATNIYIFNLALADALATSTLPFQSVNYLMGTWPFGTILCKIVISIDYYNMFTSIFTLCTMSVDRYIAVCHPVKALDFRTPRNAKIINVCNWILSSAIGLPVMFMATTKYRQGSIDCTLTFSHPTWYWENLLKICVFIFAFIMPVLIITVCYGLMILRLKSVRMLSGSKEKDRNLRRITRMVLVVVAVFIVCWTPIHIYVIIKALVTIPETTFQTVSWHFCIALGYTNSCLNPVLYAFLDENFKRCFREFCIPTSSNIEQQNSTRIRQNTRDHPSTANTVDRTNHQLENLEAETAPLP
# Chain of UniProt P63096 (whole entry, looked up): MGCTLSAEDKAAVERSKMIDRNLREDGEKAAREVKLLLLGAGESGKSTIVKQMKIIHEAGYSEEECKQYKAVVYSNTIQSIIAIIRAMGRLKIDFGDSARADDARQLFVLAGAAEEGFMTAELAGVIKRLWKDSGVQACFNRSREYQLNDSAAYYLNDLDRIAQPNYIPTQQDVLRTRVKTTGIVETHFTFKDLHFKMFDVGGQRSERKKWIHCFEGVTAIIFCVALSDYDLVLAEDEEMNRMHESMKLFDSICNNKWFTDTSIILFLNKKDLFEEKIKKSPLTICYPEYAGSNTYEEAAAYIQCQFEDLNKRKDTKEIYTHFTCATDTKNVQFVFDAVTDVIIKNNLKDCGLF
# Chain of UniProt P03023 (whole entry, unmodified, looked up): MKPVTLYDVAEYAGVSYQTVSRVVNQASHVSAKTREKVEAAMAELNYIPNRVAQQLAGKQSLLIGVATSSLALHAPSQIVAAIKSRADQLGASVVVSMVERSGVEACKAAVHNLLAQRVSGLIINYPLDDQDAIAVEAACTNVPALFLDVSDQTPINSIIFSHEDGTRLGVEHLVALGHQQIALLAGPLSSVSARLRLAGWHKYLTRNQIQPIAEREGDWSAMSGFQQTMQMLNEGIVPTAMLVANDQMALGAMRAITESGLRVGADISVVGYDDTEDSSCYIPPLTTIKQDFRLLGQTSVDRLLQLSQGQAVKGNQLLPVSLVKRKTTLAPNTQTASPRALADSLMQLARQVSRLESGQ
# Chain of UniProt Q12974 (whole entry, looked up): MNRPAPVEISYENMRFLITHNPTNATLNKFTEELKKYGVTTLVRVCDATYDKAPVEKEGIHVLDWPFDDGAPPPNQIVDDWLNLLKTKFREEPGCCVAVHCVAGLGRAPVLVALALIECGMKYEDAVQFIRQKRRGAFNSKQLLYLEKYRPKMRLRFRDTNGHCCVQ
# Chain of UniProt P51451 (whole entry, looked up): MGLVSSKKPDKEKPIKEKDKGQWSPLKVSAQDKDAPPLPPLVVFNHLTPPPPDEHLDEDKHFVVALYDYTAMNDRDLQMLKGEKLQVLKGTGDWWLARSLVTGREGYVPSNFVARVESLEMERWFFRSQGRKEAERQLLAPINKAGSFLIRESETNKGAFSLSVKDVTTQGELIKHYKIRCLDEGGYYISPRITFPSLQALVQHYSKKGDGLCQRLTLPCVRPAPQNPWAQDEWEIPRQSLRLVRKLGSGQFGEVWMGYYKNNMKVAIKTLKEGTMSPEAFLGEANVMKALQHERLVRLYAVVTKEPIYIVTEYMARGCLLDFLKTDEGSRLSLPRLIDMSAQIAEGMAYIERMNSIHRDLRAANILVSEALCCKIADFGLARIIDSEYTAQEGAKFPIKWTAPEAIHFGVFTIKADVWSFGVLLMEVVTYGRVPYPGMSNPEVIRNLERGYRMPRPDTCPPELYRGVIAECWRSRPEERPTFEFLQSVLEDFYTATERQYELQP
# Chain of UniProt P17812 (whole entry, looked up): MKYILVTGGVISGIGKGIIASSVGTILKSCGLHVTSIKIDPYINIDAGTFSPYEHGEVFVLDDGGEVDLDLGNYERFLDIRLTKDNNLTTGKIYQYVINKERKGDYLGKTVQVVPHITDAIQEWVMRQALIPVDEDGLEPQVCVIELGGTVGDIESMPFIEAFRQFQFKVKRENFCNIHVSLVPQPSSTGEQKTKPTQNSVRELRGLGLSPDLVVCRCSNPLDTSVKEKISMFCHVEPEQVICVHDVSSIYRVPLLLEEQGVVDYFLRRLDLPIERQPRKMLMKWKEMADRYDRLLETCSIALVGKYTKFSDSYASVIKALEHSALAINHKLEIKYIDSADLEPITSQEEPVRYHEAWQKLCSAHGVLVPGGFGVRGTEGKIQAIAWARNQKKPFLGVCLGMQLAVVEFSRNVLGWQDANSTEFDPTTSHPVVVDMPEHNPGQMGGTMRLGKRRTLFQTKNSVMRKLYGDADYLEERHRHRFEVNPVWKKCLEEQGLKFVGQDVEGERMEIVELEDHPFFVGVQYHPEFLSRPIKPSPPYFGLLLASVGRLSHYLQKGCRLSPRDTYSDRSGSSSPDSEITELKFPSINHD
# Chain of UniProt P16885 (whole entry, looked up): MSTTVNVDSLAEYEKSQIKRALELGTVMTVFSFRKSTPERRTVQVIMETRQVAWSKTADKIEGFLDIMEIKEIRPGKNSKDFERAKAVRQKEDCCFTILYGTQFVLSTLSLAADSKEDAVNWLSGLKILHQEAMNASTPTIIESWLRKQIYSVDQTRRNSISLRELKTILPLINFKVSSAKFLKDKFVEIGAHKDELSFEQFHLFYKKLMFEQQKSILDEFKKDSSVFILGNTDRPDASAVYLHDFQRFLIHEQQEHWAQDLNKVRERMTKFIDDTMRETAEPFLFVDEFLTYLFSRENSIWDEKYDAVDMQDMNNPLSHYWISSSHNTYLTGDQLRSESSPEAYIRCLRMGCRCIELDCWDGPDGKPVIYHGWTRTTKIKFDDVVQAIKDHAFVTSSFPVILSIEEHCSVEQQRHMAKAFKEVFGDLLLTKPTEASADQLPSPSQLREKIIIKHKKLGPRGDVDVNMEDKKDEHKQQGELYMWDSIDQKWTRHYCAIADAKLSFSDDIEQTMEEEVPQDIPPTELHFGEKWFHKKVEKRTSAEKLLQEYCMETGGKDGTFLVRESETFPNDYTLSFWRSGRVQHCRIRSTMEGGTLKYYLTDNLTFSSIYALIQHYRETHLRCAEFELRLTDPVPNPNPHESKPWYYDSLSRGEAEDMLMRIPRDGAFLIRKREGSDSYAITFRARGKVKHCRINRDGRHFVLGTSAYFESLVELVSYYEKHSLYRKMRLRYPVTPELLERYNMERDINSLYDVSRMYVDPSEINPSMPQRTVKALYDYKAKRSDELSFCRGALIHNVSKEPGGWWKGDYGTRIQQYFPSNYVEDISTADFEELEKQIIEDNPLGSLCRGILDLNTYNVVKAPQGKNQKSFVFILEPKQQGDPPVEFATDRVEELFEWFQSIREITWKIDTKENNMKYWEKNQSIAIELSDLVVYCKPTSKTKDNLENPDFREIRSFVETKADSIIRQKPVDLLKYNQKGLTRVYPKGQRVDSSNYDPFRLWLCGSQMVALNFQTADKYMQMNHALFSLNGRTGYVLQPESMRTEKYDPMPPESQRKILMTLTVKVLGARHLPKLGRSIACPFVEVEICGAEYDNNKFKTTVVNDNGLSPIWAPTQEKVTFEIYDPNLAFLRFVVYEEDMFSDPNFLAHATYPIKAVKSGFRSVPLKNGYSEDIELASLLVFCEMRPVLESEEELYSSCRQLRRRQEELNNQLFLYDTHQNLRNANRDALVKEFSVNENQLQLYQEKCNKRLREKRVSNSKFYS
# Chain of UniProt Q6NV75 (whole entry, looked up): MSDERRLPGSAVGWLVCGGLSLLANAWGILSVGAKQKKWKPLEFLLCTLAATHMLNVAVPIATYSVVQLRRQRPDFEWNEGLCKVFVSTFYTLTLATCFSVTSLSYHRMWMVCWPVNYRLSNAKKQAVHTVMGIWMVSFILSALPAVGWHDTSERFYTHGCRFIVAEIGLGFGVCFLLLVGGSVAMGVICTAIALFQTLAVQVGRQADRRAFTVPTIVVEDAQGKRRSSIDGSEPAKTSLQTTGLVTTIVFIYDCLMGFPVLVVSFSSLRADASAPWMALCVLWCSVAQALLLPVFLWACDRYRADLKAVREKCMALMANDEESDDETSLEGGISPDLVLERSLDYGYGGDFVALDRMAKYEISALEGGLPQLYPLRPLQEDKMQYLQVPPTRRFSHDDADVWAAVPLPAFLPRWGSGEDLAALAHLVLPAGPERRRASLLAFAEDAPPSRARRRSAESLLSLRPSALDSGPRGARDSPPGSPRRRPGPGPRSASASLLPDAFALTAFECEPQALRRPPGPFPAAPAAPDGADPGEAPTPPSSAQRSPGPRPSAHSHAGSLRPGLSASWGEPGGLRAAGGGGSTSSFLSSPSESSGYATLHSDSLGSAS
Compound,target or system,assay,test system,setting,how to read,quantity,result
COCCC(NS(=O)(=O)c1cccc(Cl)c1O)c1ccco1 (stereo not shown),ampC,,,,,Ki,66.8 µM
Oc1ccc2c3c1O[C@H]1[C@@H](O)CC[C@@]4(O)[C@@H](C2)N(CC2CCC2)CC[C@]314,"Probable G-protein coupled receptor 153 (GPR153, Homo sapiens, UniProt Q6NV75)","β-arrestin recruitment, TANGO luminescence, item: GPR153",,concentration not given,reference: basal luminescence,log2 fold change,0.136
CC[C@H](C)[C@H](NC(=O)[C@H](CCCCN)NC(=O)[C@H](CO)NC(=O)[C@H](Cc1ccccc1)NC(=O)[C@H](CCSC)NC(=O)[C@@H](N)CCCCN)C(=O)N[C@@H](CCSC)C(=O)N[C@H](C(=O)N[C@@H](Cc1ccc(O)cc1)C(=O)O)[C@@H](C)O,"HLA class I histocompatibility antigen, A alpha chain allele A*02:01",binding,,,,IC50,2.51 µM
CC[C@H](C)[C@H](NC(=O)[C@H](CC(=O)O)NC(=O)[C@H](C)NC(=O)[C@H](Cc1ccc(OP(=O)(O)O)cc1)NC(=O)[C@H](CCCCN)NC(=O)[C@@H](NC(=O)[C@H](CC(=O)O)NC(=O)CNC(=O)[C@H](CCCCN)NC(=O)[C@H](CCSC)NC(=O)[C@H](CC(=O)O)NC(=O)[C@H](CC(C)C)NC(=O)[C@H](CCSC)NC(=O)c1ccc2c(c1)C(=O)OC21c2ccc(N(C)C)cc2Oc2cc(N(C)C)ccc21)C(C)C)C(=O)N[C@@H](CCC(=O)O)C(=O)N[C@@H](CO)C(=O)N[C@@H](CO)C(=O)N[C@@H](CC(N)=O)C(=O)N[C@@H](CC(=O)O)C(=O)O,"Tyrosine-protein kinase Blk, SH2 domain (BLK, Homo sapiens, UniProt P51451)",binding,,,,Kd,0.761 µM
COC(=O)C(Cc1ccc(F)cc1)NS(=O)(=O)c1cccc(Cl)c1O (stereo not shown),ampC,,,,,Ki,240 µM
CC[C@H](C)[C@H](NC(=O)[C@H](Cc1ccccc1)NC(=O)[C@H](CCC(=O)O)NC(=O)[C@H](CCCNC(=N)N)NC(=O)[C@H](C)NC(=O)[C@H](C)NC(=O)[C@H](CCC(N)=O)NC(=O)[C@H](CCC(=O)O)NC(=O)[C@H](CCC(=O)O)NC(=O)[C@H](CC(C)C)NC(=O)[C@H](Cc1ccc(O)cc1)NC(=O)[C@H](CO)NC(=O)[C@H](CO)NC(=O)[C@@H](NC(=O)[C@H](CC(=O)O)NC(=O)[C@H](CO)NC(=O)[C@@H](NC(=O)[C@H](Cc1ccccc1)NC(=O)[C@@H](NC(=O)CNC(=O)[C@H](CCC(=O)O)NC(=O)[C@H](C)NC(=O)CCc1c[nH]cn1)[C@@H](C)O)[C@@H](C)O)C(C)C)C(=O)N[C@@H](C)C(=O)N[C@@H](Cc1c[nH]c2ccccc12)C(=O)N[C@@H](CC(C)C)C(=O)N[C@H](C(=O)N[C@@H](CCCNC(=N)N)C(=O)NCC(=O)N[C@@H](CCCNC(=N)N)C(=O)N[C@@H](CCCCNC(=O)COCCOCCNC(=O)COCCOCCNC(=O)CC[C@H](NC(=O)CCCCCCCCCCCCCCCCC(=O)O)C(=O)O)C(=O)NCC(=O)NCC(=O)N[C@@H](CO)C(=O)N[C@@H](CCCCNc1c(NCCCCCN(O)C(=O)CCC(=O)NCCCCCN(O)C(=O)CCC(=O)NCCCCCN(O)C(C)=O)c(=O)c1=O)C(=O)O)C(C)C [zirconium-89 labelled],,,"rat, liver","sc, 3 nmol/kg, 72 h, ex vivo",,tissue uptake,0.64 %ID/g
OC[C@H]1O[C@@H](OCCc2ccccc2)[C@H](O)[C@@H](O)[C@H]1O,"lacI (Escherichia coli, UniProt P03023, D149A/N125A)","operator DNA release, nitrocellulose filter binding",,added: O1 operator DNA,,EC50,> 1000 µM
CSCC[C@H](NC(=O)c1ccc2c(c1)C(=O)OC21c2ccc(N(C)C)cc2Oc2cc(N(C)C)ccc21)C(=O)N[C@@H](CO)C(=O)N[C@@H](CCCNC(=N)N)C(=O)N[C@@H](CC(=O)O)C(=O)N[C@H](C(=O)N[C@@H](Cc1ccc(O)cc1)C(=O)N[C@@H](CO)C(=O)N[C@H](C(=O)N[C@@H](CC(=O)O)C(=O)N[C@@H](Cc1ccc(OP(=O)(O)O)cc1)C(=O)N[C@@H](Cc1ccc(O)cc1)C(=O)N[C@@H](CCCNC(=N)N)C(=O)N[C@H](C(=O)NCC(=O)NCC(=O)N[C@@H](Cc1c[nH]cn1)C(=O)N[C@H](C(=O)N[C@@H](CC(=O)O)C(=O)O)[C@@H](C)O)C(C)C)[C@@H](C)O)C(C)C,"1-phosphatidylinositol 4,5-bisphosphate phosphodiesterase gamma-2, SH2 domain (PLCG2, Homo sapiens, UniProt P16885)",binding,,,,Kd,1.7 µM
COC(=O)C(CC1CC=CCC1)NS(=O)(=O)c1cccc(Cl)c1O (stereo not shown),ampC,,,,,Ki,137 µM
C[C@H]1CN(c2n[nH]c3nc(N[C@H]4CC[C@H](NS(=O)(=O)CCC(F)(F)F)CC4)ncc23)CCO1,"CTP synthase 1 (Homo sapiens, UniProt P17812)",biochemical,,,,IC50,≥ 20 µM
CC[C@H](C)[C@@H]1NC(=O)[C@@H]2CCCN2C(=O)[C@H](CC(C)C)NC(=O)[C@H](CC(C)C)NC(=O)CNC(=O)[C@@H](NC(=O)[C@@H](NC(=O)[C@H](CC(=O)O)NC(=O)CNC(=O)[C@@H](NC(=O)[C@H](C)NC(=O)CNC(=O)[C@H](CCCCN)NC(=O)[C@H](CC(C)C)NC(=O)[C@H](CC(C)C)NC(=O)[C@H](CCCCN)NC(=O)CNC(=O)[C@@H](NC(=O)[C@@H](N)CC(C)C)C(C)C)C(C)C)C(C)C)CSSC[C@@H](C(=O)O)NC1=O,,"RNA-seq, item: Dram1","mouse, traumatic brain injury model, frontal cortex and hippocampus",dose not given,reference: TBI alone,log2 fold change,-1.81
COc1cc2c(Oc3ccc4[nH]c(C)cc4c3F)ccnc2cc1OCC1(N)CC1,,,paediatric recurrent refractory sarcoma,10 mg,,grade 3 Nausea,0%
CC(C)C[C@H](NC(=O)[C@@H](N)Cc1c[nH]cn1)C(=O)N[C@@H](Cc1ccccc1)C(=O)N1CCC[C@H]1C(=O)N[C@@H](CCCNC(=N)N)C(=O)N[C@H](C(=O)N[C@@H](Cc1c[nH]cn1)C(=O)N[C@@H](Cc1ccc(O)cc1)C(=O)N[C@@H](Cc1ccccc1)C(=O)O)[C@@H](C)O,"HLA class I histocompatibility antigen, A alpha chain, allele A*24:02 (Homo sapiens, UniProt P04439)",binding,,,,IC50,0.736 µM
O=S(=O)(NC(Cc1ccccc1)c1cccs1)c1cccc(Cl)c1O (stereo not shown),ampC,,,,,Ki,105 µM
C[C@@H](O)[C@@H](CO)NC(=O)[C@@H](CCCNC(=N)N)NC(=O)[C@@H]1CCCN1C(=O)[C@@H]1CSSC[C@H](NC(=O)[C@H](Cc2ccccc2)NC(=O)CN2CCN(CC(=O)O)CCN(CC(=O)O)CCN(CC(=O)O)CC2)C(=O)N[C@@H](Cc2ccc(O)cc2)C(=O)N[C@@H](Cc2ccccc2)C(=O)N[C@@H](CCC(N)=O)C(=O)N[C@@H](CC(N)=O)C(=O)N1 [gallium-68 labelled],,,"Wistar rat, liver","intravenous, 8 MBq, 30 min, group mean",,tissue uptake,0.45 %ID/g
Nc1nc2c(ncn2[C@@H]2O[C@H](COP(=O)(O)OP(O)(O)=S)[C@@H](O)[C@H]2O)c(=O)[nH]1,"OPRM1/GNAI1 (Homo sapiens, UniProt P35372+P63096)",MOR-Gi coupling,HEK293F,ratio 1:2,,IC50,0.0458 µM and 0.0496 µM and 0.0543 µM
CSCC[C@H](NC(=O)[C@@H](N)CCCNC(=N)N)C(=O)N[C@@H](Cc1ccc(O)cc1)C(=O)N[C@@H](CC(N)=O)C(=O)N1CCC[C@H]1C(=O)N[C@H](C(=O)N[C@@H](CC(C)C)C(=O)N[C@@H](CCCNC(=N)N)C(=O)N[C@@H](Cc1ccccc1)C(=O)O)C(C)C,"HLA class I histocompatibility antigen, A alpha chain allele A*02:01",binding,,,,IC50,9.58 µM
C[C@H]1O[C@@H](Oc2ccccc2[N+](=O)[O-])[C@H](O)[C@@H](O)[C@H]1O,"lacI (Escherichia coli, UniProt P03023)","operator DNA binding, nitrocellulose filter binding",,added: O1 operator DNA,,EC50,110 ± 11 µM
CSCC[C@H](NC(=O)[C@@H](N)Cc1ccc(O)cc1)C(=O)N[C@@H](CC(=O)O)C(=O)N1CCC[C@H]1C(=O)N[C@H](C(=O)N1CCC[C@H]1C(=O)N[C@@H](CC(C)C)C(=O)N[C@@H](CCC(N)=O)C(=O)N[C@@H](Cc1ccccc1)C(=O)O)C(C)C,"HLA class I histocompatibility antigen, A alpha chain allele A*02:01",binding,,,,IC50,0.516 µM
CO[C@H]1C[C@@H]2CC[C@@H](C)[C@@](O)(O2)C(=O)C(=O)N2CCCC[C@H]2C(=O)O[C@H]([C@H](C)C[C@@H]2CC[C@@H](OC(=O)NCCOCCOCCOCCOCCOCCOCCOCCOCCC(=O)N3CCc4cc(Cn5nc(-c6ccc7oc(N)nc7c6)c6c(N)ncnc65)ccc4C3)[C@H](OC)C2)C[C@@H](O)[C@H](C)/C=C(\C)[C@@H](O)[C@@H](OC)C(=O)[C@H](C)C[C@H](C)/C=C/C=C/C=C/1C,,,patients with advanced solid tumours,"intravenous, 12 mg weekly, any grade",,dysgeusia incidence,25%
CSCC[C@H](NC(=O)[C@@H](N)Cc1c[nH]cn1)C(=O)N[C@@H](Cc1ccc(O)cc1)C(=O)N1CCC[C@H]1C(=O)N[C@@H](CC(N)=O)C(=O)N[C@@H](Cc1ccccc1)C(=O)N[C@H](C(=O)N[C@@H](CCC(N)=O)C(=O)N[C@@H](Cc1ccccc1)C(=O)O)C(C)C,"HLA class I histocompatibility antigen, A alpha chain allele A*02:01",binding,,,,IC50,13.7 µM
COc1cc(Nc2ncc(F)c(Nc3ccc4c(n3)NC(=O)C(C)(C)O4)n2)cc(OC)c1OC,"Protein tyrosine phosphatase type IVA 2 (Homo sapiens, UniProt Q12974)",,,PRL-2,,IC50,> 10 µM

# Excerpt of the above:
Compound,target or system,assay,test system,setting,how to read,quantity,result
CC[C@H](C)[C@H](NC(=O)[C@H](CCCCN)NC(=O)[C@H](CO)NC(=O)[C@H](Cc1ccccc1)NC(=O)[C@H](CCSC)NC(=O)[C@@H](N)CCCCN)C(=O)N[C@@H](CCSC)C(=O)N[C@H](C(=O)N[C@@H](Cc1ccc(O)cc1)C(=O)O)[C@@H](C)O,"HLA class I histocompatibility antigen, A alpha chain allele A*02:01",binding,,,,IC50,2.51 µM
